Experimental data of several laboratories.
Lines come from different studies, so protocols differ. ± marks the error that the study gave. Values after ≈ are worked out from the molar mass of the structure shown.

Cc1cc(/C=C/C#N)cc(C)c1Oc1nc(NC2CCN(Cc3ccc(P(C)(C)=O)cc3)CC2)nc2ccsc12 — EC50 fold change (HIV-1; MT-4, F227L/V106A; baseline: doravirine EC50 over cpd EC50): ~18000 fold
CC[C@H](C)[C@H](NC(=O)[C@H](Cc1c[nH]c2ccccc12)NC(=O)[C@H](CCCCN)NC(=O)[C@H](CCCCN)NC(=O)[C@H](CC(C)C)NC(=O)[C@H](Cc1c[nH]c2ccccc12)NC(=O)[C@H](CCCCN)NC(=O)[C@@H](N)Cc1c[nH]c2ccccc12)C(=O)N[C@@H](CCCCN)C(N)=O — MIC (Mycobacterium bovis; isoniazid-resistant mutant, broth with pyruvate; 48 h, 37 °C): 10 µM (≈ 13.1 µg/mL)
Nc1c(C(=O)Nc2cccc(Cl)c2)sc2nc(-c3ccncc3)ccc12 — MIC50 (Bacillus anthracis; Sterne): > 160 µM
C[C@H](NP(=O)(Nc1ccn([C@H]2CS[C@@H](COP(=O)(N[C@@H](C)C(=O)OCc3ccccc3)N[C@@H](C)C(=O)OCc3ccccc3)O2)c(=O)n1)N[C@@H](C)C(=O)OCc1ccccc1)C(=O)OCc1ccccc1 — EC50 (HIV-2; viral replication; CCRF-CEM, ROD; 4 d): 58 ± 44 µM
CC(=O)Oc1ccccc1C(=O)Nc1ncc([N+](=O)[O-])s1 — IC50 ratio (influenza A virus; cell-based; baseline: R292K mutant over wild type): > 10 fold
CC(C)[C@H](NC(=O)[C@H](Cc1c[nH]c2ccccc12)NC(=O)[C@H](CCCNC(=N)N)NC(=O)[C@H](Cc1c[nH]c2ccccc12)NC(=O)[C@H](Cc1c[nH]c2ccccc12)NC(=O)[C@H](CCCNC(=N)N)NC(=O)[C@@H](N)CCCNC(=N)N)C(=O)N[C@H](C(=O)N[C@@H](Cc1c[nH]c2ccccc12)C(N)=O)C(C)C — MIC (Mycobacterium bovis; isoniazid-resistant mutant, broth with pyruvate; 48 h, 37 °C): 20 µM (≈ 28.6 µg/mL)
O=C(NN1C(=O)[C@@H]2[C@@H]3C=C[C@@H]([C@H]4C[C@@H]34)[C@@H]2C1=O)c1ccc(C(F)(F)F)cc1 — lung viral titre reduction (monkeypox virus; mice; oral, 50 mg/kg once daily; baseline: vehicle): 2.7 log
CSCC[C@@H]1NC(=O)[C@H](CC(C)C)NC(=O)[C@H](CCCNC(=N)N)NC(=O)[C@H](CO)NC(=O)[C@@H]2CSSC[C@@H]3NC(=O)[C@H](CO)NC(=O)CNC(=O)[C@H]([C@@H](C)O)NC(=O)[C@H](CSSC[C@H](N)C(=O)N[C@@H](CCCCN)C(=O)NCC(=O)N[C@@H](CCCCN)C(=O)NCC(=O)N[C@@H](C)C(=O)N[C@@H](CCCCN)C(=O)N2)NC(=O)[C@H](CSSC[C@@H](C(N)=O)NC(=O)[C@H](CCCCN)NC(=O)CNC(=O)[C@H](CO)NC(=O)[C@H](CCCNC(=N)N)NC3=O)NC(=O)[C@H](CC(=O)O)NC(=O)[C@H](Cc2ccc(O)cc2)NC1=O — MIC (Pseudomonas aeruginosa): > 500 µM
CC[C@H](C)[C@H](NC(=O)[C@H](Cc1ccc(O)cc1)NC(=O)[C@H](CO)NC(=O)[C@H](CCC(=O)O)NC(=O)[C@H](CC(N)=O)NC(=O)[C@H](CC(C)C)NC(=O)[C@H](C)NC(=O)[C@H](CCCCN)NC(=O)[C@@H](NC(=O)[C@@H](NC(=O)[C@H](CCC(N)=O)NC(=O)[C@H](CCC(N)=O)NC(=O)[C@H](CC(C)C)NC(=O)[C@H](CO)NC(=O)[C@H](CC(C)C)NC(=O)[C@H](CCSC)NC(=O)[C@H](CCC(=O)O)NC(=O)[C@H](Cc1ccc(O)cc1)NC(=O)[C@@H](NC(=O)[C@H](CC(C)C)NC(=O)[C@H](CC(=O)O)NC(=O)[C@H](CC(C)C)NC(=O)[C@H](CC(C)C)NC(=O)[C@@H](NC(=O)[C@@H](NC(=O)[C@H](CC(N)=O)NC(=O)[C@@H](NC(=O)[C@H](CCC(N)=O)NC(=O)[C@@H](NC(=O)[C@H](CC(C)C)NC(=O)[C@@H](N)CO)[C@@H](C)O)[C@@H](C)CC)[C@@H](C)O)[C@@H](C)O)[C@@H](C)O)C(C)C)C(C)C)C(=O)N[C@@H](CC(=O)O)C(=O)N[C@@H](CC(C)C)C(=O)N[C@@H](CCCCN)C(=O)N[C@@H](CCC(=O)O)C(=O)N[C@@H](CC(C)C)C(=O)O — IC50 (MERS-CoV; viral infection, CPE MTT; Calu-3): 0.6 µM
CC(=O)N1C[C@@H](COP(=O)(N(C)C)N2C[C@@H](COP(=O)(N(C)C)N3C[C@@H](COP(=O)(N(C)C)N4C[C@@H](COP(=O)(N(C)C)N5C[C@@H](COP(=O)(N(C)C)N6C[C@@H](COP(=O)(N(C)C)N7C[C@@H](COP(=O)(N(C)C)N8C[C@@H](COP(=O)(N(C)C)N9C[C@@H](COP(=O)(N(C)C)N%10C[C@@H](COP(=O)(N(C)C)N%11C[C@@H](COP(=O)(N(C)C)N%12C[C@@H](COP(=O)(N(C)C)N%13C[C@@H](COP(=O)(N(C)C)N%14C[C@@H](COP(=O)(N(C)C)N%15C[C@@H](COP(=O)(N(C)C)N%16C[C@@H](COP(=O)(N(C)C)N%17C[C@@H](COP(=O)(N(C)C)N%18C[C@@H](COP(=O)(N(C)C)N%19C[C@@H](COP(=O)(N(C)C)N%20C[C@@H](COP(=O)(N(C)C)N%21C[C@@H](COP(=O)(N(C)C)N%22C[C@@H](COP(=O)(N(C)C)N%23C[C@@H](COP(=O)(N(C)C)N%24CCN(C(=O)CCCN%25C(=O)CC(SC[C@H](NC(=O)[C@H](CCCNC(=N)N)NC(=O)[C@H](CCCNC(=N)N)NC(=O)[C@H](CCCNC(=N)N)NC(=O)[C@H](CCCNC(=N)N)NC(=O)[C@H](Cc%26ccccc%26)NC(=O)[C@H](Cc%26ccccc%26)NC(=O)[C@H](CCCNC(=N)N)NC(=O)[C@H](CCCNC(=N)N)NC(=O)[C@H](CCCNC(=N)N)NC(=O)[C@H](CCCNC(=N)N)NC(=O)[C@@H](N)CCCNC(=N)N)C(N)=O)C%25=O)CC%24)O[C@@H](n%24cnc%25c(=O)[nH]c(N)nc%25%24)C%23)O[C@@H](n%23cc(C)c(=O)[nH]c%23=O)C%22)O[C@@H](n%22ccc(N)nc%22=O)C%21)O[C@@H](n%21cnc%22c(N)ncnc%22%21)C%20)O[C@@H](n%20cc(C)c(=O)[nH]c%20=O)C%19)O[C@@H](n%19ccc(N)nc%19=O)C%18)O[C@@H](n%18cc(C)c(=O)[nH]c%18=O)C%17)O[C@@H](n%17cc(C)c(=O)[nH]c%17=O)C%16)O[C@@H](n%16cnc%17c(=O)[nH]c(N)nc%17%16)C%15)O[C@@H](n%15ccc(N)nc%15=O)C%14)O[C@@H](n%14cnc%15c(=O)[nH]c(N)nc%15%14)C%13)O[C@@H](n%13ccc(N)nc%13=O)C%12)O[C@@H](n%12ccc(N)nc%12=O)C%11)O[C@@H](n%11cnc%12c(N)ncnc%12%11)C%10)O[C@@H](n%10cc(C)c(=O)[nH]c%10=O)C9)O[C@@H](n9cc(C)c(=O)[nH]c9=O)C8)O[C@@H](n8cc(C)c(=O)[nH]c8=O)C7)O[C@@H](n7cc(C)c(=O)[nH]c7=O)C6)O[C@@H](n6cc(C)c(=O)[nH]c6=O)C5)O[C@@H](n5cnc6c(=O)[nH]c(N)nc65)C4)O[C@@H](n4cc(C)c(=O)[nH]c4=O)C3)O[C@@H](n3cnc4c(=O)[nH]c(N)nc43)C2)O[C@@H](n2cnc3c(=O)[nH]c(N)nc32)C1 (some centres unmarked) — RTA-positive cells (Kaposi's sarcoma-associated herpesvirus; immunofluorescence; BCBL1 cells; 16 µM, 48 h, added 4 h before TPA, added: TPA 20 ng/mL): ~5%
C[n+]1ccccc1/C=N/O — protection (dichlorvos; Swiss mice; 30 mg/kg, added: atropine; baseline: untreated poisoned mice): 3.41 fold
NC12CC3CC(CC(C3)C1)C2 — EC50 (Influenza A virus; viral replication; MDCK, A/Swine/Minnesota/34-0801/2011 (H1N2)): < 1 µM
Nc1c(C(=O)Nc2ccc(Cl)cc2F)sc2nc(-c3cccs3)ccc12 — MIC50 (Bacillus anthracis; Sterne): 20 µM (≈ 8.08 µg/mL)
CS(=O)(=O)NC(=O)NCc1cn(-c2ccc(Cl)cc2)nc1-c1ccncc1 — MIC (Mycobacterium tuberculosis; OD600; cyd deletion mutant): 0.5 µM (≈ 0.203 µg/mL)

Some of these lines once more:
CC[C@H](C)[C@H](NC(=O)[C@H](Cc1ccc(O)cc1)NC(=O)[C@H](CO)NC(=O)[C@H](CCC(=O)O)NC(=O)[C@H](CC(N)=O)NC(=O)[C@H](CC(C)C)NC(=O)[C@H](C)NC(=O)[C@H](CCCCN)NC(=O)[C@@H](NC(=O)[C@@H](NC(=O)[C@H](CCC(N)=O)NC(=O)[C@H](CCC(N)=O)NC(=O)[C@H](CC(C)C)NC(=O)[C@H](CO)NC(=O)[C@H](CC(C)C)NC(=O)[C@H](CCSC)NC(=O)[C@H](CCC(=O)O)NC(=O)[C@H](Cc1ccc(O)cc1)NC(=O)[C@@H](NC(=O)[C@H](CC(C)C)NC(=O)[C@H](CC(=O)O)NC(=O)[C@H](CC(C)C)NC(=O)[C@H](CC(C)C)NC(=O)[C@@H](NC(=O)[C@@H](NC(=O)[C@H](CC(N)=O)NC(=O)[C@@H](NC(=O)[C@H](CCC(N)=O)NC(=O)[C@@H](NC(=O)[C@H](CC(C)C)NC(=O)[C@@H](N)CO)[C@@H](C)O)[C@@H](C)CC)[C@@H](C)O)[C@@H](C)O)[C@@H](C)O)C(C)C)C(C)C)C(=O)N[C@@H](CC(=O)O)C(=O)N[C@@H](CC(C)C)C(=O)N[C@@H](CCCCN)C(=O)N[C@@H](CCC(=O)O)C(=O)N[C@@H](CC(C)C)C(=O)O — IC50 (MERS-CoV; viral infection, CPE MTT; Calu-3): 0.6 µM
